Published values from different studies.
Protocols differ between the studies behind these lines. Values joined by “and” are separate records of one study, mostly repeats; a detail may differ. ± marks the error that the study gave.
Astl: Astacin-like metalloendopeptidase (Astl, Mus musculus, UniProt Q6HA09)
UniProt P28482, sequence (whole entry, looked up): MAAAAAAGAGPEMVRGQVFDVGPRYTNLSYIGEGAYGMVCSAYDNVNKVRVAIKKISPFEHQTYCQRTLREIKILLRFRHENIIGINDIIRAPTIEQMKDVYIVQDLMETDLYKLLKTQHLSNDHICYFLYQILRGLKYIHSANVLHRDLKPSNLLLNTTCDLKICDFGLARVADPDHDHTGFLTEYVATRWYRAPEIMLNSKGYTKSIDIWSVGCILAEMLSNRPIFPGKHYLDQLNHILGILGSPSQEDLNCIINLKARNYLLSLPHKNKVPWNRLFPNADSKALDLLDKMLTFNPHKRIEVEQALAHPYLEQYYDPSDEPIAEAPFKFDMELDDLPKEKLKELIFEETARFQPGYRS
UniProt Q6HA09, sequence (whole entry, looked up): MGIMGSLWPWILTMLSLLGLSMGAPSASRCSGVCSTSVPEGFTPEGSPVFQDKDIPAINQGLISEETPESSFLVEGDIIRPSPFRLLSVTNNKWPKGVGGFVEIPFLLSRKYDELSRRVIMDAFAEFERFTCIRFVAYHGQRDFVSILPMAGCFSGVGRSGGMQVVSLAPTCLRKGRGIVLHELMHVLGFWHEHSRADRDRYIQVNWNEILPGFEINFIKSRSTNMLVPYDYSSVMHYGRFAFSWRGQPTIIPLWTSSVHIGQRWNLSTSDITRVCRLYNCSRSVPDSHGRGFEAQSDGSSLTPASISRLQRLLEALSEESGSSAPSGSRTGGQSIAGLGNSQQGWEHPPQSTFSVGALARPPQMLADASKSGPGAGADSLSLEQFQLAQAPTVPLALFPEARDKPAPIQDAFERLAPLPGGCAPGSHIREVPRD
UniProt P14778, sequence (whole entry, looked up): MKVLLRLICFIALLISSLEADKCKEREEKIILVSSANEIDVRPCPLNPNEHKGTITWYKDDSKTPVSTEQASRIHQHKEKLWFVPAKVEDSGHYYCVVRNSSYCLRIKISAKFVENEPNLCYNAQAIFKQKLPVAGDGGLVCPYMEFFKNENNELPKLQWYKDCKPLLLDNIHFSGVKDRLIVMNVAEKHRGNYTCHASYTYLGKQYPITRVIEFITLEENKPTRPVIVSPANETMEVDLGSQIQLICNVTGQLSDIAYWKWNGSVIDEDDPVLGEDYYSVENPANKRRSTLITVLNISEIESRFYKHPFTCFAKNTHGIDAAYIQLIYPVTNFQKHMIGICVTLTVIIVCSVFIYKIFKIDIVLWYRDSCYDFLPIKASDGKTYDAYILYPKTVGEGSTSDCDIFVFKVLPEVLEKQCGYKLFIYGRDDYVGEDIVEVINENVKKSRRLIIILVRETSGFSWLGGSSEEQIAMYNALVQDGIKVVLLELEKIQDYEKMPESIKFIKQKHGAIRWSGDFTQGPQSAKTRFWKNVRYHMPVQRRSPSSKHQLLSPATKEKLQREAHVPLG
UniProt Q13315, sequence (whole entry, looked up): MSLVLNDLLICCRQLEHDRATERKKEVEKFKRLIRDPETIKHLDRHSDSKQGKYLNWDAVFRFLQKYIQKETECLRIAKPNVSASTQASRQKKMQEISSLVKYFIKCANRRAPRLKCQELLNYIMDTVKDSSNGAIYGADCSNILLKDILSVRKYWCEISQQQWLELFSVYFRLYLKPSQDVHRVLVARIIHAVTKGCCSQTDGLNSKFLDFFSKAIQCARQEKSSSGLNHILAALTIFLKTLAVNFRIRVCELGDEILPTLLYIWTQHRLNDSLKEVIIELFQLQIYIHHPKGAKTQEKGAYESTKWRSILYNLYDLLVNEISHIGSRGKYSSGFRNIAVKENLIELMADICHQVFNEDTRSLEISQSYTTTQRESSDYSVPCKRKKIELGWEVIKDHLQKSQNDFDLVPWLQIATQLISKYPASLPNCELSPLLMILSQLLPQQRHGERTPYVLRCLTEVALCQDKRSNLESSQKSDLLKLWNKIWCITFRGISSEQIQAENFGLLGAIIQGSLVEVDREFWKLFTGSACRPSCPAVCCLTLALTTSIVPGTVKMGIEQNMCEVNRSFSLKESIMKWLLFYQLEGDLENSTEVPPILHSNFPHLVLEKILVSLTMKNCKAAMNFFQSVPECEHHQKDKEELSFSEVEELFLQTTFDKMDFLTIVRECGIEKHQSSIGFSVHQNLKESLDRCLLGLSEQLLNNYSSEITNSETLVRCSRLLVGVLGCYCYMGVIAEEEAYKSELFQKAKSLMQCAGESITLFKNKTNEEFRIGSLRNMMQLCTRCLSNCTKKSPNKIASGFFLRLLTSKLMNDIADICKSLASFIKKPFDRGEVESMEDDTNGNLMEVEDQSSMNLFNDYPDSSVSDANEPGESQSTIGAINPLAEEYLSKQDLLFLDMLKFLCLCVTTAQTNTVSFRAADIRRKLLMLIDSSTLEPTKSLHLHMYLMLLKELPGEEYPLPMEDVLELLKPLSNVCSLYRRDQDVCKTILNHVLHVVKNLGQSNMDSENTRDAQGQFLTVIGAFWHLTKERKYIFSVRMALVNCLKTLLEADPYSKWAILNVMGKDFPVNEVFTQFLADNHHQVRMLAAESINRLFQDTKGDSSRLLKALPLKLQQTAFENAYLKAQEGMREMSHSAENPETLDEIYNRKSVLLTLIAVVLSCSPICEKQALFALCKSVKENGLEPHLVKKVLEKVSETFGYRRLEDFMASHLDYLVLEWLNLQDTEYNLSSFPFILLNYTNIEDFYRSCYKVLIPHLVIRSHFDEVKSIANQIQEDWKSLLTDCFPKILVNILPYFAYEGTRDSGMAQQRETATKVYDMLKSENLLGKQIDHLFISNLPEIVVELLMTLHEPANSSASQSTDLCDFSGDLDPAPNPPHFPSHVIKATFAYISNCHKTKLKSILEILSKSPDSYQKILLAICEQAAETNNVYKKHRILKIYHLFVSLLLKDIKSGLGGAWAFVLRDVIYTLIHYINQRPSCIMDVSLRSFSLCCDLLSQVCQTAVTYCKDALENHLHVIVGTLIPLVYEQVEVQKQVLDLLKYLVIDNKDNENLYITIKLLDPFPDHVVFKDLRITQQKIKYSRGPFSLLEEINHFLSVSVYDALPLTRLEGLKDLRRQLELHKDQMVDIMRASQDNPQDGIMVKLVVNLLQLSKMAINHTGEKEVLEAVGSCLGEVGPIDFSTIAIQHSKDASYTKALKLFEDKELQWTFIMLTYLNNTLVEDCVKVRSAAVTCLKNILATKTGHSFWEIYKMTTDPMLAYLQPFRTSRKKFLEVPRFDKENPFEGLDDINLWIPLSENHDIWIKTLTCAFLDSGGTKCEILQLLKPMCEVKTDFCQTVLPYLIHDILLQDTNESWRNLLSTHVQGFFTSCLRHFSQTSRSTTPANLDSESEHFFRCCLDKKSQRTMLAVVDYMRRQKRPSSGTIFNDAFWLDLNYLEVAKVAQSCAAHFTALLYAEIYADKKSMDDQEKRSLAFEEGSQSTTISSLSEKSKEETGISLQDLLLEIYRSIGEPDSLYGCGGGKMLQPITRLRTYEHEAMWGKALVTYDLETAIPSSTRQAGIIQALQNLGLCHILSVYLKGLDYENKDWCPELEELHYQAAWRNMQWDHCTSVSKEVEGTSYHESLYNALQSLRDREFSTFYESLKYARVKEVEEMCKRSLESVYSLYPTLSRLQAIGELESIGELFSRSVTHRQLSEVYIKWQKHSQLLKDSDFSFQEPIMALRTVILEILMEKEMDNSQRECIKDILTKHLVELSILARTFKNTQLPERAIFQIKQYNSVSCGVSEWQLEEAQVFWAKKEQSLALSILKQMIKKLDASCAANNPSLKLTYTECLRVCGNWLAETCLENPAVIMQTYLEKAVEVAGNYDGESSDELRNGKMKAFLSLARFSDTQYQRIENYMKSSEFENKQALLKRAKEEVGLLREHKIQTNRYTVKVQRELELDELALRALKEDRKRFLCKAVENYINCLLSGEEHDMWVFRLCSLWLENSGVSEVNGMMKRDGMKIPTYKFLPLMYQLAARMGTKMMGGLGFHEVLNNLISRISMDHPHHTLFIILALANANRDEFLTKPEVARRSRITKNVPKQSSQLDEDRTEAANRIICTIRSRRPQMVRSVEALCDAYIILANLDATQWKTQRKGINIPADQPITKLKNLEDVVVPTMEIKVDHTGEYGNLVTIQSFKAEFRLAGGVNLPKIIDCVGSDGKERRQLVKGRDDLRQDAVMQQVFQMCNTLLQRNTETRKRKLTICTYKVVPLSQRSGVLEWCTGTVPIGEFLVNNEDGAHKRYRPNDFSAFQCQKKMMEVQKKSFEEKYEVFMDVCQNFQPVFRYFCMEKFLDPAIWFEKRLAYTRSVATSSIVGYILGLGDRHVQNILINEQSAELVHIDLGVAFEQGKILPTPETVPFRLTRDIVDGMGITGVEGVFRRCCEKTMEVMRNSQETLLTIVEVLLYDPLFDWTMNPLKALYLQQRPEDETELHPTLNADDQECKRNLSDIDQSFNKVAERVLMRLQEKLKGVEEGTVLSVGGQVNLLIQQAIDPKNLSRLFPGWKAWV
UniProt O43187, sequence (whole entry, looked up): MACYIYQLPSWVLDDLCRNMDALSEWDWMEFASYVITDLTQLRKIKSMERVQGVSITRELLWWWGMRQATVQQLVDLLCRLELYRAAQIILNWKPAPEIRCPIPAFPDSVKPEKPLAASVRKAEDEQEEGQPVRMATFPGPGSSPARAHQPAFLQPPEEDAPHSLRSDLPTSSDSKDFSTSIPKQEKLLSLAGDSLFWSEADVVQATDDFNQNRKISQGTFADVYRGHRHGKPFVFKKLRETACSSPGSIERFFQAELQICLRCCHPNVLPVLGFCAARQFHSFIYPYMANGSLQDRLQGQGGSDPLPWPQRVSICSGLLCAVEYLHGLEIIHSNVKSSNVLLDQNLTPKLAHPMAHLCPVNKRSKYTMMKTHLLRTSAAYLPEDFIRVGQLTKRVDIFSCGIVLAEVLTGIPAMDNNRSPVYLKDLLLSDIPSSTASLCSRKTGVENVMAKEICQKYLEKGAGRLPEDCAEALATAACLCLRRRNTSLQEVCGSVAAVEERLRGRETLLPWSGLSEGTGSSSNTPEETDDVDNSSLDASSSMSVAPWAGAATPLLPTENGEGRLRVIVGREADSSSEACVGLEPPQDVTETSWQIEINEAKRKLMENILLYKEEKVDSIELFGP

O=C(CN(Cc1ccc(Cl)c(O)c1F)Cc1ccc(Cl)c(O)c1F)NO
remaining activity (Astl; enzyme activity, inhibitor, fluorogenic; 5 µM): 20 ± 5%

N#Cc1cnc2sc(C(=O)O)cc2c1N1CCc2[nH]nc(C(=O)N[C@@H](CC(=O)NCCOCCN3CCOCC3)c3cccc(Br)c3)c2C1
remaining activity (Interleukin-1 receptor type 1 (IL1R1, Homo sapiens, UniProt P14778); IL-8 release, antagonist; A-431; 4000 µM, 18 h, together with: IL-1β 5 ng/mL; relative to: untreated): 88.1%

O=C(CCN(Cc1cccnc1)Cc1cccnc1)NO
remaining activity (Astl; enzyme activity, inhibitor, fluorogenic; 5 µM): 63 ± 6%

COC1CN([C@H]2CC[C@H]([C@@]3(C)Oc4c(Cl)cc(C(=O)NCc5c(SC)cc(C)[nH]c5=O)c(C)c4O3)CC2)C1
log2 fold change (RNA-seq, refers to: MMP8; human, whole blood; dose not given, 24 h; relative to: pretreatment baseline): 2.26

Cc1cc(NC(=O)c2cccc(NC(=O)/C(C#N)=C/C(C)(C)C)c2)ccc1Nc1nccc(-c2cccnc2)n1
remaining activity (Mitogen-activated protein kinase 8, phosphorylated (MAPK8, Homo sapiens, UniProt P45983); enzyme activity after dialysis, inhibitor; 10 µM, 4 days, unit not given; relative to: no inhibitor): 0.816

CC(C)[C@@H]1NC(=O)[C@H](Cc2ccccc2)NC(=O)CSC[C@@H](C(N)=O)NC(=O)[C@H](CCC(=O)O)NC(=O)[C@H](CO)NC(=O)[C@H](Cc2c[nH]c3cccc(Cl)c23)NC(=O)[C@H](C2CCCCC2)NC(=O)[C@H](C(C)C)NC(=O)[C@H](Cc2ccc(O)cc2)NC(=O)[C@H](CC(=O)O)NC(=O)[C@H](Cc2c[nH]c3ccccc23)NC(=O)[C@H](Cc2ccc(N)nc2)NC(=O)[C@H](Cc2c[nH]c3ccc(Cl)cc23)NC(=O)[C@H](CCC(=O)O)NC1=O
remaining activity (Interleukin-1 receptor-like 2 (IL1RL2, Homo sapiens, UniProt Q9HB29); reporter gene (SEAP), inhibitor, HEK-Blue IL-36R reporter; HEK-Blue IL-36R cells; 0.046 µM, 6 h, together with: IL-36β 0.3 ng/mL): 87.7%

COC(=O)[C@@]1(C)C=C(C(=O)Nc2cccc(C(=O)Nc3ccc(Nc4nccc(-c5cccnc5)n4)c(C)c3)c2)C(=O)CC1
remaining activity (Mitogen-activated protein kinase 1 (MAPK1, Homo sapiens, UniProt P28482); enzyme activity, inhibitor; 44.44 µM, unit not given; relative to: vehicle): 0.583 and 0.669 and 0.622

O=C(CCN(Cc1ccc2c(c1)OCO2)Cc1ccc2c(c1)OCO2)NO
remaining activity (Astl; enzyme activity, inhibitor, fluorogenic; 5 µM): 16 ± 3%

Nc1ncc(-c2cc(-c3cnn(CC(F)(F)F)c3)ncc2F)nc1C(=O)NC1CNCC(F)C1 (stereo not drawn)
remaining activity (Interleukin-1 receptor-associated kinase-like 2 (IRAK2, Homo sapiens, UniProt O43187); enzyme activity; 1 µM; relative to: DMSO control): 92.8%

CC(C)(C)OC(=O)NC(Cc1cccc(Cl)c1)C(=O)NCC=CS(=O)(=O)c1ccccc1 (stereo not drawn)
remaining activity (Rhodesain (rhodesain, Trypanosoma brucei rhodesiense, UniProt Q95PM0); enzyme activity, inhibitor, fluorescence; 5 µM): < 1%

CCC1(CC)C(=O)N(c2cccc(CN3CCN(Cc4ccc(Br)cc4)CC3)c2)C1=O
remaining activity (Dipeptidyl peptidase 8 (Homo sapiens, UniProt Q6V1X1); enzyme activity, inhibitor; 5 µM): 10%

COc1ccc(CN(CC(=O)NO)Cc2cccc(C(=O)O)c2)cc1
remaining activity (Astl; enzyme activity, inhibitor, fluorogenic; 0.25 µM): 102 ± 5%

CC(=O)N1c2ccc(-c3ccc(CNC(=O)c4cn5cc(-c6cnc(N)nc6)nc(N6CCOCC6)c5n4)cc3)cc2CC[C@@H]1C
remaining activity (Serine-protein kinase ATM (ATM, Homo sapiens, UniProt Q13315); enzyme activity, inhibitor, radiometric; 10 µM): 95%

CN(Cc1cc(C2CC2)on1)C(=O)c1cccc(-c2ccc3c(c2)CCO3)c1
remaining activity (Acetyl-CoA synthetase (Cryptococcus neoformans, UniProt J9VFT1); enzyme activity, inhibitor, coupled pyrophosphate; 244 nM): 91.9% and 106%

O=C(CCN(Cc1ccc(Cl)c(O)c1F)Cc1ccc(Cl)c(O)c1F)NO
remaining activity (Astl; enzyme activity, inhibitor, fluorogenic; 5 µM): 5 ± 2%

Cc1ncsc1-c1ccc(C(C)NC(=O)C2CC(O)CN2C(=O)C(NC(=O)CCCCCCCCCCN2CCCC(Nc3ncc(Cl)c(Nc4ccccc4S(=O)(=O)C(C)C)n3)C2)C(C)(C)C)cc1 (stereo not drawn)
log2 fold change (22Rv1; RNA-seq, refers to: OTUD6B-AS1; concentration not given; relative to: DMSO): -1.11

COc1ccccc1-c1ccncc1C(=O)Nc1nnc(OCc2ccc(Cl)cc2)s1
remaining activity (Bifunctional 3'-5' exonuclease/ATP-dependent helicase WRN, residues 500-946 (WRN, Homo sapiens, UniProt Q14191); ATPase activity, ADP-Glo; 0.008 µM; relative to: 0 µM cpd): 99%

C[C@](C(=O)NC1CCOCC1)(c1cncnc1)N(C(=O)[C@H](F)Cl)c1ccc(OC(F)(F)Cl)cc1
remaining activity (Angiotensin-converting enzyme (ACE, Homo sapiens, UniProt P12821); enzyme activity, inhibitor; 10 µM): 103%

For quick reference, copied from above:
CC(C)(C)OC(=O)NC(Cc1cccc(Cl)c1)C(=O)NCC=CS(=O)(=O)c1ccccc1 (stereo not drawn)
remaining activity (Rhodesain (rhodesain, Trypanosoma brucei rhodesiense, UniProt Q95PM0); enzyme activity, inhibitor, fluorescence; 5 µM): < 1%

Nc1ncc(-c2cc(-c3cnn(CC(F)(F)F)c3)ncc2F)nc1C(=O)NC1CNCC(F)C1 (stereo not drawn)
remaining activity (Interleukin-1 receptor-associated kinase-like 2 (IRAK2, Homo sapiens, UniProt O43187); enzyme activity; 1 µM; relative to: DMSO control): 92.8%
